Measured values pooled from the literature.
A part holds a random share of what one study measured. Changes are numbered by the printed parent chain.

Block 1 — target: CCNE2, cyclin fold, Cln2 fusion (human); method: yeast growth competition, sequencing; sample: yeast; setting: weak parent motif; baseline: not given; reading: higher = stronger binding
Starting sequence: PKN2 docking peptide (human); VSAVQKLDFSDTM; partner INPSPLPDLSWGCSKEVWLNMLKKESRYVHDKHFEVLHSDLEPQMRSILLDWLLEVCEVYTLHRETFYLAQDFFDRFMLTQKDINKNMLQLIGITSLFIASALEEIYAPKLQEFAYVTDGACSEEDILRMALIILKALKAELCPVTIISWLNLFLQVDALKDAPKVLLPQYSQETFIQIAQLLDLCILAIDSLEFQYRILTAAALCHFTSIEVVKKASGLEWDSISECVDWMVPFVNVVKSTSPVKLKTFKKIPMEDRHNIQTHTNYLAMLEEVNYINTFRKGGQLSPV
`VSAVQKLDFSHTM [D11H]` — result for “normalised enrichment score”: 0.33.
Under “normalised enrichment score”, `VSAVQKIDFSDTM [L7I]` is recorded as -0.239.
`VSAMQKLDFSDTM [V4M]`: “normalised enrichment score” 0.0826.
Under “normalised enrichment score”, `VSKVQKLDFSDTM [A3K]` is recorded as -0.283.
`VSAVQKLEFSDTM [D8E]`: “normalised enrichment score” -0.301.
`GSAVQKLDFSDTM [V1G]`: “normalised enrichment score” 0.147.
`VSAIQKLDFSDTM [V4I]` — result for “normalised enrichment score”: -0.226.
For `VSAWQKLDFSDTM [V4W]`, “normalised enrichment score” read -0.542.
Under “normalised enrichment score”, `VSAVRKLDFSDTM [Q5R]` is recorded as 4.41.
`VSAVQWLDFSDTM [K6W]` — result for “normalised enrichment score”: 0.505.
Under “normalised enrichment score”, `VSAVQKLDFFDTM [S10F]` is recorded as 0.135.
For `VEAVQKLDFSDTM [S2E]`, “normalised enrichment score” read -0.511.
`VSAVQKWDFSDTM [L7W]`: “normalised enrichment score” 0.504.
For `VNAVQKLDFSDTM [S2N]`, “normalised enrichment score” read -0.198.
Under “normalised enrichment score”, `VFAVQKLDFSDTM [S2F]` is recorded as -0.0112.
For `VSAVQCLDFSDTM [K6C]`, “normalised enrichment score” read 0.0502.
`VSCVQKLDFSDTM [A3C]` — result for “normalised enrichment score”: 0.152.
`VSAVQKLDFSDTW [M13W]` — result for “normalised enrichment score”: 0.32.

Block 2 — target: JDP2, bZIP domain (human); method: DHFR protein complementation; sample: yeast; baseline: wild-type JUN-FOS pair; reading: higher = stronger binding
Setting: single substitutions, most at no-binding floor
Starting sequence: JUN, bZIP domain (human); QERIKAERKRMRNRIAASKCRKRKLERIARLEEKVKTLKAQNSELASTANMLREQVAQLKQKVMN; partner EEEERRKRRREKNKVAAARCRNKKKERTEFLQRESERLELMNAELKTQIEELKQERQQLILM
`V56P` has a binding fitness of -1.04 natural log.
The binding fitness of `A57N` is reported as 0.318 natural log.
The binding fitness of `R53G` is reported as 0.231 natural log.
With `A29I` the binding fitness was 0.278 natural log.
With `K34S` the binding fitness was 0.35 natural log.
For `K39I`, the binding fitness was 0.228 natural log.
The binding fitness of `S43D` is reported as 0.292 natural log.
`E33W` has a binding fitness of 0.163 natural log.
With `E32F` the binding fitness was 0.11 natural log.
`K34T` gave a binding fitness of 0.31 natural log.
`E33K` gave a binding fitness of 0.115 natural log.
The binding fitness of `V35R` is reported as 0.0317 natural log.

Block 3 — method: RNA Bind-n-Seq; form: RNA; sample: in vitro; tested at: 365 nM; baseline: no-protein control; reading: higher = stronger binding
Target: RNA binding protein fox-1 homolog 2, RRM domain, GST-SBP tag (RBFOX2, Homo sapiens, UniProt O43251-10, residues 100-194)
Setting: natural RNA segment, single round, ends assumed
Target sequence (chain): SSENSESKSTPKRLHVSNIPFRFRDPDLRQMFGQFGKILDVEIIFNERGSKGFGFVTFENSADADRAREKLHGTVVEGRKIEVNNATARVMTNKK
`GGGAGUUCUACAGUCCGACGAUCGGGAAGGCCCACAGCCCAAGGGAUCCAUAAUAAUAAUUGCUUGGCCAGCCAUGUGGCCUGCUGGCGUUCCACUGUGGCAUUCUUUGUGGCACCAAGUCUUCACCUGCCCCUGGAAUUCUCGGGUGCCAA` — result for “RBNS enrichment (R)”: 0.518.
For `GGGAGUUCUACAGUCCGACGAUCUCCUUGCCAGCACCUCUUUCUCUGCCCAAUUGAGGGGAACAAAAGGGUGUUCACAGAUGGAGCGAGCUUGCAGCCGCGUGGCUGUGCUGCUCUGUGAGAAGGCGUGCCAGUGGAAUUCUCGGGUGCCAA`, “RBNS enrichment (R)” read 1.03.
For `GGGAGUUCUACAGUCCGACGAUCGAUUUGCCUUCUGUCUUAUGCCAAACACCCCUUUCUAAGAGCUGUCCCCGCUUAGUUUUAGAAGUACUAGGGGUUUUCAUACUUAUUUUAUAGAACACCCAUUUAUAUUUUGGAAUUCUCGGGUGCCAA`, “RBNS enrichment (R)” read 0.374.
`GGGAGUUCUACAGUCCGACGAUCUUUCUGUAUUGUCUAGGUUAAGCCCACUUUAGGAGAUCCUUUACUCAUUAACUUAACCAACAAUGUGUAUUGAGUCUCUGCUGUAUAUCUGUGAUGCUCUGUCCCAAGCCUGGAAUUCUCGGGUGCCAA`: “RBNS enrichment (R)” 0.318.
`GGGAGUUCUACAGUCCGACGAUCCUAAGGCUGGCCCUAUUCCAUCCUUCUUCCUAGAUGAUGGGUGUGUUAAUGGGAGGAAGGAAAGAGACCCUGCCUAGGGAAGGUUGGCUUACAGCCACCCUUGCAAGAAGUGGAAUUCUCGGGUGCCAA` — result for “RBNS enrichment (R)”: 0.556.
For `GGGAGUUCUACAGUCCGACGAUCCAGCCACAGCAGCCUCUCCUUGCCACUUGCAAGACCCUAGGAGUUGCAGACUUGAAAAAGCUCUGUCUCCAACAGGGCCUCCUCUGAUCUCAGGAGCCUCAACUGUUUAUUGGAAUUCUCGGGUGCCAA`, “RBNS enrichment (R)” read 0.282.
`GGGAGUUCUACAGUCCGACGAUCUGAUGAAUAUAUUUAAAUUUUUUUAUUGUGGAGCAUAGGAAUUGUCCCCCAUUCCUAGGCCUAACCUUGCUUGAACAGGGUUGGGCAAAGCUGCGGUAUUAUUGGUUGAGUGGAAUUCUCGGGUGCCAA` — result for “RBNS enrichment (R)”: 0.37.
Under “RBNS enrichment (R)”, `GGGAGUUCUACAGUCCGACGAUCACUUGAAUUUGACAAACUGAAGCAGACAAGUGUUCUGGGUCCUCUGAUAAUUUGGGGUGUUUGGCUGUCAGCUAGGCUCAUGAAGUCCACUGUACUGUAAUGAUGGUAUUUGGAAUUCUCGGGUGCCAA` is recorded as 0.369.

Block 4 — method: DHFR PCA, deep sequencing; sample: yeast; together with: (+)-ABA 0.0091 µM; baseline: wild-type fitted maximum; reading: higher = stronger binding
Target: ABI1, truncated, D143A, DHFR fusion (Arabidopsis thaliana)
Setting: methotrexate growth selection, single substitutions
Starting sequence: PYL1, truncated, DHFR fusion (Arabidopsis thaliana); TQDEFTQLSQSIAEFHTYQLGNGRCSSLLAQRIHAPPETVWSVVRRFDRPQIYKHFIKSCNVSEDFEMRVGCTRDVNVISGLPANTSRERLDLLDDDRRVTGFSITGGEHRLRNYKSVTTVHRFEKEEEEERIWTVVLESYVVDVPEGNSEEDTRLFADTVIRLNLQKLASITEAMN; partner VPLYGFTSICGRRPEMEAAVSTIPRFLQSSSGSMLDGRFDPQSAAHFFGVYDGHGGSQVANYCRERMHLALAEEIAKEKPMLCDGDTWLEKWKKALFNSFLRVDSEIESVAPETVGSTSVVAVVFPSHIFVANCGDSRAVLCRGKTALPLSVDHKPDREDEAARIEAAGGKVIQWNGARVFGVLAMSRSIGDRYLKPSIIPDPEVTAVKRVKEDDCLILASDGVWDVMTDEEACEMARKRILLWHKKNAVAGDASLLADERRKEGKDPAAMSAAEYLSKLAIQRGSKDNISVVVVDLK
Under “relative binding score”, `V44F` is recorded as -3.19%.
For `G21I`, “relative binding score” read 3.38%.
`I52Y` — result for “relative binding score”: 2.11%.
Under “relative binding score”, `G108H` is recorded as -5.88%.
`A175D` — result for “relative binding score”: 22.8%.
For `Y115P`, “relative binding score” read 3.63%.
`D75E`: “relative binding score” 48.2%.
`V142Q` — result for “relative binding score”: 10.7%.
Under “relative binding score”, `L91Y` is recorded as 0.481%.
For `V161K`, “relative binding score” read 4.67%.
`L169H` — result for “relative binding score”: -2.11%.
`F103Q`: “relative binding score” -4.28%.
For `R24T`, “relative binding score” read 8.61%.
`Y141C`: “relative binding score” 5.3%.
`K116Q` — result for “relative binding score”: 22.5%.
`N85D`: “relative binding score” 13.9%.
`P146F`: “relative binding score” -2.68%.
